Experimental data of several laboratories.
Every numbered part comes from another study and shows a few of its results, in no order.
UniProt Q8WXR4, sequence (whole entry, looked up): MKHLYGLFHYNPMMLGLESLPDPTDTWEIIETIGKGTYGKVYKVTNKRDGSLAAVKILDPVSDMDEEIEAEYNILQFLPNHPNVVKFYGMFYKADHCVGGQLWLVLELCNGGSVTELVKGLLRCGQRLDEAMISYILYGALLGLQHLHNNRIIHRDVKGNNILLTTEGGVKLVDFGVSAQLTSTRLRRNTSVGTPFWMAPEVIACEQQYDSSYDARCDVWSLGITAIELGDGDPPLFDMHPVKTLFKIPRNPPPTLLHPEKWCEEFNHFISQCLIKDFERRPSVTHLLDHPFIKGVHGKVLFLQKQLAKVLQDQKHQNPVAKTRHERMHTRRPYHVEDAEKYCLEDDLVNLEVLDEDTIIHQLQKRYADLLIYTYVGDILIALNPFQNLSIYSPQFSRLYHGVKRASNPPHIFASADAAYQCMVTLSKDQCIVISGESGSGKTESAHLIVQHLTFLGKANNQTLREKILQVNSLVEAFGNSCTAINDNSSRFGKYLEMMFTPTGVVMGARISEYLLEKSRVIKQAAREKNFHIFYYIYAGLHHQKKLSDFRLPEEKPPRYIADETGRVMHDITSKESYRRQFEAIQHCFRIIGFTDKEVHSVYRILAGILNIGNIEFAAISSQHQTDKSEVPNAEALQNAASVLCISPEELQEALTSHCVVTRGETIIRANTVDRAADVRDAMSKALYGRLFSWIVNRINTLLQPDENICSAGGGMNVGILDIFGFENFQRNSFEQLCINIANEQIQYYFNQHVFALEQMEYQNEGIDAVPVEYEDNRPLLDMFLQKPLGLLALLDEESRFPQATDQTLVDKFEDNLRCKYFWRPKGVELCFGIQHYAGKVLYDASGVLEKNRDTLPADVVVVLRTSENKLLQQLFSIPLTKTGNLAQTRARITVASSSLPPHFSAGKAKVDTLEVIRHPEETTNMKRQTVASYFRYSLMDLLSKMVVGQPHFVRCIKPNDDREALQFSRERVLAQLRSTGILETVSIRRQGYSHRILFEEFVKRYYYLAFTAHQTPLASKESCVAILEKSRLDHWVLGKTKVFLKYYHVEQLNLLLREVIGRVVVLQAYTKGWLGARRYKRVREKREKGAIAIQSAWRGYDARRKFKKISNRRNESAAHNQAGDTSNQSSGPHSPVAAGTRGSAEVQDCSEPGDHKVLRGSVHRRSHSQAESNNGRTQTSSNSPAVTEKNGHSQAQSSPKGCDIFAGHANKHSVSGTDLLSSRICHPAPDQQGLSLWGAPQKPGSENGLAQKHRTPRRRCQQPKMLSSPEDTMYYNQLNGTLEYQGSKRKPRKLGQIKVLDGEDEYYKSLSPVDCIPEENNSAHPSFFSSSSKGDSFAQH
UniProt P42681, sequence (whole entry, looked up): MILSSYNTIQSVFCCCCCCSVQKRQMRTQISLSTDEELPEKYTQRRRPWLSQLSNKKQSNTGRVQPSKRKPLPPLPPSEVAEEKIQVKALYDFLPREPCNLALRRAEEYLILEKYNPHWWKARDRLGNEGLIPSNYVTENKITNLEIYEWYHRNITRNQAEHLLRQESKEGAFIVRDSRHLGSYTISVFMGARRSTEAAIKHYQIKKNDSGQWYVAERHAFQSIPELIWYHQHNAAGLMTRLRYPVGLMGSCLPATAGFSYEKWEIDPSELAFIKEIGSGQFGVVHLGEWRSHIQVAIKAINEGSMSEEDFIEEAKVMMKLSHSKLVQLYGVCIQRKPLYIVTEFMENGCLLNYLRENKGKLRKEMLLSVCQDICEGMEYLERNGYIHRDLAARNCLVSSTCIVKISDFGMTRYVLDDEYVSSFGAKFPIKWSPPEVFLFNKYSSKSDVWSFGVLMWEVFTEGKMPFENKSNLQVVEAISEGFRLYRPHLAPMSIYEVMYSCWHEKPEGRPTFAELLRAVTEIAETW
UniProt Q6P2M8, sequence (whole entry, looked up): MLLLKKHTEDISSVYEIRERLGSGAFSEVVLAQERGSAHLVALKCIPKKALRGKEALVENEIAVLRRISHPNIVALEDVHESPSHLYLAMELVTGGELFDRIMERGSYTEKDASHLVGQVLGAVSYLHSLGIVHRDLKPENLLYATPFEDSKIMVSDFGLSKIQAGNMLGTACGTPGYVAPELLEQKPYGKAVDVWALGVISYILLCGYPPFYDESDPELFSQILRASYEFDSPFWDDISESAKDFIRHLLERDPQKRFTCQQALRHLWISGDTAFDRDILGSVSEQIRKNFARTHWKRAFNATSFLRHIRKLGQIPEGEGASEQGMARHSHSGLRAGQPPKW
UniProt Q9HAZ1, sequence (whole entry, looked up): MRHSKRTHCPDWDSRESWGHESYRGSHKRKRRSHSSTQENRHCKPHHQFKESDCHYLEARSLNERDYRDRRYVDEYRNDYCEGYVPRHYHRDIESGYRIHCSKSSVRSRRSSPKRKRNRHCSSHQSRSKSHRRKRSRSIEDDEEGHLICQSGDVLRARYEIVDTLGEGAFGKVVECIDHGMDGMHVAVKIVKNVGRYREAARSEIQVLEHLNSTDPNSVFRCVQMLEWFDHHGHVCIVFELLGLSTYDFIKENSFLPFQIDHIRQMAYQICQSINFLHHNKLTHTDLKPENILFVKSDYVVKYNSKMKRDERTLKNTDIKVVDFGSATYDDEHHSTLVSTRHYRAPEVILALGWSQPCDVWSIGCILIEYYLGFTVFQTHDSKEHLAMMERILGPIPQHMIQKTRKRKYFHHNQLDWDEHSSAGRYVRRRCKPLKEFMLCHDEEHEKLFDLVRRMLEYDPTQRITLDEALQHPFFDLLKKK
UniProt P0C264, sequence (whole entry, looked up): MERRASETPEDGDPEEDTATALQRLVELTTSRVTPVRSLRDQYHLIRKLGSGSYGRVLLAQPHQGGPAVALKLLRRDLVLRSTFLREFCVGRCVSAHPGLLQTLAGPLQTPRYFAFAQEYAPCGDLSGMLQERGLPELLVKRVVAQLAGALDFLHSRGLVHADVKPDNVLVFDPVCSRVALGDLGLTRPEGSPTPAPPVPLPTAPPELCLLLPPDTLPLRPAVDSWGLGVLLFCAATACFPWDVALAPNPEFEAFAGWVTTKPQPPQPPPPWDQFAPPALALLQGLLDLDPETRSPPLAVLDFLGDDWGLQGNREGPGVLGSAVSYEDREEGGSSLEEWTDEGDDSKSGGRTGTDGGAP
UniProt P31751, sequence (whole entry, looked up): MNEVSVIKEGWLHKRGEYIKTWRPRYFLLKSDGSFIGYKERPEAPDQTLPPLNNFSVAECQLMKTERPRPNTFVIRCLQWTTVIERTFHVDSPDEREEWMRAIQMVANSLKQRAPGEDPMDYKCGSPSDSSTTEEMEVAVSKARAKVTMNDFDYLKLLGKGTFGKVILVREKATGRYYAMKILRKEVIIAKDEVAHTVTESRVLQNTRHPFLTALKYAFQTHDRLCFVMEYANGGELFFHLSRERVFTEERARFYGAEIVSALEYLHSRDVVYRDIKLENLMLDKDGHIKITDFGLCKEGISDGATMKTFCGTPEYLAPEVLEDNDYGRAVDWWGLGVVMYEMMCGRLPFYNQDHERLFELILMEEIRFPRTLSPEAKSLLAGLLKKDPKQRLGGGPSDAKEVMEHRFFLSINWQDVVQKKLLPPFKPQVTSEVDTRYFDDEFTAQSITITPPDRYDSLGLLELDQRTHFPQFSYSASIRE
UniProt P50750, sequence (whole entry, looked up): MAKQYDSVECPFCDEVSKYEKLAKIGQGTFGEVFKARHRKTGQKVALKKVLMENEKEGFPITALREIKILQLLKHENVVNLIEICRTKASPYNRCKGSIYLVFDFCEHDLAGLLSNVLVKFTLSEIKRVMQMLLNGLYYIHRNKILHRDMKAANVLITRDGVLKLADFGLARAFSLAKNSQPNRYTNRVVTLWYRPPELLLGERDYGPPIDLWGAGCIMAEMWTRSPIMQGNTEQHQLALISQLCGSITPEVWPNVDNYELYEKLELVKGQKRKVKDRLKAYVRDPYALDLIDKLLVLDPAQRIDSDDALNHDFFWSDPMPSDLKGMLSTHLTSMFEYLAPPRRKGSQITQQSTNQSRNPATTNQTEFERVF
UniProt P51956, sequence (whole entry, looked up): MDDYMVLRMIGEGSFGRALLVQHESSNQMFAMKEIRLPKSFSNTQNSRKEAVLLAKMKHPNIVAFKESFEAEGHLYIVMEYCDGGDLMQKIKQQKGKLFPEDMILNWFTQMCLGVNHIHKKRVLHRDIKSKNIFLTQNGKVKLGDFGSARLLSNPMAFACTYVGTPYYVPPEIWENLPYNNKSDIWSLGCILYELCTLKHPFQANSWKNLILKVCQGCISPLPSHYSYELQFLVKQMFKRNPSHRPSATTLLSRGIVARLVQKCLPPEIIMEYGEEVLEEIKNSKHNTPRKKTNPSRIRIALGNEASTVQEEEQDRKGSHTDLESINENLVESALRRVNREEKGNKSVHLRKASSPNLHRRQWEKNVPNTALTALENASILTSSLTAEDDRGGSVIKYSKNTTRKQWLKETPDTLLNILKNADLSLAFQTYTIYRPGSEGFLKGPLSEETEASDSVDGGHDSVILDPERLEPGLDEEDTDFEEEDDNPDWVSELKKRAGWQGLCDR
UniProt P32298, sequence (whole entry, looked up): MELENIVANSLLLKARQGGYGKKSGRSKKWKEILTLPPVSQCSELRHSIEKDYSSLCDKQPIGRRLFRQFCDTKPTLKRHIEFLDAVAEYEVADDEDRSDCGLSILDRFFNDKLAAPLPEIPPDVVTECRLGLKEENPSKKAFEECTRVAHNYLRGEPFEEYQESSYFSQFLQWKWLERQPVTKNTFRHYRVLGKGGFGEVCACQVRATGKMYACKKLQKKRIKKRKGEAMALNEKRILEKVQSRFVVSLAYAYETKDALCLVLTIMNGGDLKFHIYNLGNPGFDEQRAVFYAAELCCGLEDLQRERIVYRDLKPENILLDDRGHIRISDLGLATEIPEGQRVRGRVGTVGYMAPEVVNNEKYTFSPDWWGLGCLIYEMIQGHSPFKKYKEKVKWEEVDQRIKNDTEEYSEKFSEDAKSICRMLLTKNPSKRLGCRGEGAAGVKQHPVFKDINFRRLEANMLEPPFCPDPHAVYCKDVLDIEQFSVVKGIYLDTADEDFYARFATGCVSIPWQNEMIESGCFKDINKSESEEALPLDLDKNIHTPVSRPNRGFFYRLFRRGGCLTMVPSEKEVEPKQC

Block 1 — Compound: O=C1NC(=O)/C(=C/c2ccc3nccnc3c2)S1; observed: enzyme activity; mode: inhibitor; concentration: 0.5 µM; baseline: control; quantity: remaining activity
TXK (Homo sapiens, UniProt P42681): 96.8%
CLK4 (Homo sapiens, UniProt Q9HAZ1): 47.5%
Myosin-IIIb (MYO3B, Homo sapiens, UniProt Q8WXR4): 83.8%
MAPK14 (Homo sapiens, UniProt Q16539): 92.9%
AKT2 (Homo sapiens, UniProt P31751): 101%
MARK2 (Homo sapiens, UniProt Q7KZI7): 93%
GRK4 (Homo sapiens, UniProt P32298): 106%
Cyclin-dependent kinase 9, with cyclin K (CDK9, Homo sapiens, UniProt P50750): 86%
MARK4 (Homo sapiens, UniProt Q96L34): 89.9%
DCLK2 (Homo sapiens, UniProt Q8N568): 94.3%
PNCK (Homo sapiens, UniProt Q6P2M8): 101%
NEK3 (Homo sapiens, UniProt P51956): 97.3%
RPS6KA4 (Homo sapiens, UniProt O75676): 115%
MAPK1 (Homo sapiens, UniProt P28482): 85.2%

Block 2 — target: Sox-I, HMG box (Salpingoeca helianthica); method: Spec-seq; form: double-stranded DNA, one strand shown; medium: in vitro; concentration: not given; notes: whole probe, mean of replicates; baseline: not given; direction: lower = stronger binding; quantity: relative binding energy; shared flanks, not repeated: GAGTCGTCTCGTCAGCAC … CCGTAGAGCACTCAGGTC
Target sequence (chain): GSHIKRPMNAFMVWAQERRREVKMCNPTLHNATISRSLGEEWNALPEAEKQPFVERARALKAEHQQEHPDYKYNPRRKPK
CATTTGG: 1.33 ln ratio
ATGAGTT: 0.212 ln ratio
GGCAGTT: 0.978 ln ratio
GTTAGTT: 0.548 ln ratio
CACCGTT: 0.439 ln ratio
CATTGAT: -0.132 ln ratio
AACAGTT: -1.2 ln ratio
CATCTTT: 0.455 ln ratio

Block 3 — Compound: c1ccc(N2CCN(Cc3nc4ccccc4[nH]3)CC2)nc1; method: competition with immobilised ligand; concentration: 1 µM; quantity: remaining binding
MAPK15 (Homo sapiens, UniProt Q8TD08); binding: 100%
SBK3 (Homo sapiens, UniProt P0C264); binding: 100%
STK17B (Homo sapiens, UniProt O94768); cell-free assay: 100%
HIPK3 (Homo sapiens, UniProt Q9H422); binding: 100%
CSF1R (Homo sapiens, UniProt P07333); cell-free assay: 98%
NUAK2 (Homo sapiens, UniProt Q9H093); binding: 100%
CDK11B (Homo sapiens, UniProt P21127); cell-free assay: 100%
MAP2K1 (Homo sapiens, UniProt Q02750); binding: 100%

Single results of other studies — method: cross-linking MS
MDH2 (Homo sapiens, UniProt P40926)  interaction screen (ACO2 (Homo sapiens, UniProt Q99798); hits only): cross-linked
PPIB (Homo sapiens, UniProt P23284)  interaction screen (UTRN (Homo sapiens, UniProt P46939); hits only): cross-linked
RRP8 (Homo sapiens, UniProt O43159)  cross-linked residues (CEBPZ (Homo sapiens, UniProt Q03701); cell fractions; added: DMTMM): E272 to K228
NUP62 (Homo sapiens, UniProt P37198)  cross-linked residues (NUP58 (Homo sapiens, UniProt Q9BVL2); cell fractions; added: DMTMM): E392 to K312

For quick reference, copied from above (block 2):
GTTAGTT: 0.548 ln ratio
CACCGTT: 0.439 ln ratio
CATTGAT: -0.132 ln ratio
AACAGTT: -1.2 ln ratio
CATCTTT: 0.455 ln ratio
